Assay results gathered from unrelated publications.
Each line is one published result; not all experiments were run side by side.
SNU13: SNU13 1-128 (Homo sapiens, UniProt P55769)
Sequence of UniProt P55769 (whole entry, looked up): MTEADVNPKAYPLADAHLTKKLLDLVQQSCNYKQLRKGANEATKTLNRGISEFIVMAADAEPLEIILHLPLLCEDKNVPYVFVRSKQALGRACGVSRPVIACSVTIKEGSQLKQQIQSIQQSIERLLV
abrB full length assumed: abrB full length assumed (Bacillus licheniformis, UniProt Q65PI4)
lysM 1-142: lysM 1-142 (Sulfolobus solfataricus, UniProt Q980W9)
Sequence of UniProt Q980W9 (whole entry, looked up): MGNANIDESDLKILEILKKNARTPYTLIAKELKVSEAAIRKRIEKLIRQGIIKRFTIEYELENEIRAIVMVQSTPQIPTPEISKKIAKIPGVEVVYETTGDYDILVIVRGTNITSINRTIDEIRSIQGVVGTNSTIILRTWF
T1: NR1I2/RXRA (Homo sapiens); chain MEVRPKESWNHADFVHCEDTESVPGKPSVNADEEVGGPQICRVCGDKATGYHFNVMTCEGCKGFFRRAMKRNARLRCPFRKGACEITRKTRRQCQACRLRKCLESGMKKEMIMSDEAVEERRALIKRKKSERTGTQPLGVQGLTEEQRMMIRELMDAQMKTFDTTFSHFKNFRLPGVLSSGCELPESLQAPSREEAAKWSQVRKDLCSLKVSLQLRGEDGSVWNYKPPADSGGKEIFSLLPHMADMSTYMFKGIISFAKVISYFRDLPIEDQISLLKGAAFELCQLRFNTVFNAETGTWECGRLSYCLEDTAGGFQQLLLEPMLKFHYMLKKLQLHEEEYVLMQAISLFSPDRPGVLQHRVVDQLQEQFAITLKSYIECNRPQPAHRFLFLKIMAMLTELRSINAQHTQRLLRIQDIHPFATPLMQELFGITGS; chain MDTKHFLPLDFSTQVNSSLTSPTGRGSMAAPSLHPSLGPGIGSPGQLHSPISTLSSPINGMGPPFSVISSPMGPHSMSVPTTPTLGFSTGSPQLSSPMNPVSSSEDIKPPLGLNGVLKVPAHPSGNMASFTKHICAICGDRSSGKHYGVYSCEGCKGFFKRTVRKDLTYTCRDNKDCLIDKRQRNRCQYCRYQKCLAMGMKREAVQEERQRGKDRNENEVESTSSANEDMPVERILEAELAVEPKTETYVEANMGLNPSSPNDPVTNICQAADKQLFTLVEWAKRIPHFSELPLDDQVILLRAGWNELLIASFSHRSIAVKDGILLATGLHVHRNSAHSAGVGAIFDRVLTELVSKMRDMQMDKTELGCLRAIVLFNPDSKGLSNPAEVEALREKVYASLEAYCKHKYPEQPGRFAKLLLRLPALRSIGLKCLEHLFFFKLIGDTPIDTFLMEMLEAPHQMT
T2: Cbp1 1-150 (Saccharolobus islandicus); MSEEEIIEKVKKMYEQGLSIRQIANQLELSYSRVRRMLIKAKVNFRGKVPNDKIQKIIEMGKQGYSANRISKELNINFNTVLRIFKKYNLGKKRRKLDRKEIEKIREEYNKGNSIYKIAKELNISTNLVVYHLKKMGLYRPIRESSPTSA
B1: UGT1A9 (Homo sapiens, UniProt O60656); chain GKLLVVPMDGSHWFTMRSVVEKLILRGHEVVVVMPEVSWQLGRSLNCTVKTYSTSYTLEDLDREFKAFAHAQWKAQVRSIYSLLMGSYNDIFDLFFSNCRSLFKDKKLVEYLKESSFDAVFLDPFDNCGLIVAKYFSLPSVVFARGILCHYLEEGAQCPAPLSYVPRILLGFSDAMTFKERVRNHIMHLEEHLLCHRFFKNALEIASEILQTPVTEYDLYSHTSIWLLRTDFVLDYPKPVMPNMIFIGGINCHQGKPLPMEFEAYINASGEHGIVVFSLGSMVSEIPEKKAMAIADALGKIPQTVLWRYTGTRPSNLANNTILVKWLPQNDLLGHPMTRAFITHAGSHGVYESICNGVPMVMMPLFGDQMDNAKRMETKGAGVTLNVLEMTSEDLENALKAVINDKSYKENIMRLSSLHKDRPVEPLDLAVFWVEFVMRHKGAPHLRPAAHDLTWYQYHSLDVIGFLLAVVLTVAFITFKCCAYGYRKCLGKKGRVKKAHKSKTH
Sequence of UniProt P19484 (whole entry, looked up): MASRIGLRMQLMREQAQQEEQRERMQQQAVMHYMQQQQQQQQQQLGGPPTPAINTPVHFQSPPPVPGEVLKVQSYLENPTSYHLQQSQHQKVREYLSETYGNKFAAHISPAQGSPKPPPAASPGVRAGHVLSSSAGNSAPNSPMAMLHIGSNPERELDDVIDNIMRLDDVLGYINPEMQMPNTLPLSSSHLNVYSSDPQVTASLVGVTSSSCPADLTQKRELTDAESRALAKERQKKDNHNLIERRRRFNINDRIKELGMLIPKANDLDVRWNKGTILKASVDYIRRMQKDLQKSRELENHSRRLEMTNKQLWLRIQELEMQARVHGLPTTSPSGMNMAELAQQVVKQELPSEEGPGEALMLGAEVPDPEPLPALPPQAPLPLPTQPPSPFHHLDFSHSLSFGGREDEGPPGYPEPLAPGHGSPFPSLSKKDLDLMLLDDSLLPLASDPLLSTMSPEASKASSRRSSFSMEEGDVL
Sequence of UniProt Q1LUM3 (whole entry, looked up): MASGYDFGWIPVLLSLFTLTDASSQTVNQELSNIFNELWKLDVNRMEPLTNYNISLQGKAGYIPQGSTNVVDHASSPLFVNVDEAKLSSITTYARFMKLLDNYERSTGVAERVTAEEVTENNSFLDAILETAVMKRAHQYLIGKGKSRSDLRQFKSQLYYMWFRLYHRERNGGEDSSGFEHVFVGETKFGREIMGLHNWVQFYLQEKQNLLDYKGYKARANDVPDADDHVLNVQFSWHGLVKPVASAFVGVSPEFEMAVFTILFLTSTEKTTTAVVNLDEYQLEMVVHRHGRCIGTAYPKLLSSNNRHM

Substance	target or system	assay	system	conditions	quantity	result
B1 (UGT1A9)	COc1cccc2oc(-c3ccccc3)c(O)c(=O)c12	steady-state kinetics	–	pH 7.4, 37 °C	Km	0.082 µM
GGGAUCGUCAGGUGGGAUAAUCCUUACCUGUUCCUCCUCCGGAGGGCAGAUUAGAACAUAAUGAUUGGAGAUGCAUGAAACGUGAUUAACGUCUCUGCGUAAUCAGGACUUGCAACACCCUGAUUGCUCCUGUCUGAUU (structured RNA)	SNU13	EMSA	–	together with: Mg2+ 1.5 mM	binding	no binding
GTAATCCGCCGTAACCAGCGCCTAAAATGACGATATGTTTTGACATCGTGAATCCTCCGTCCTTATTCTGAATGTATAGTGATTATTTTTGTTTTTCGCGTTCTGACATGATTTGCAGGTAGCTTTGAACAAATCGGAACAGCTTTTGGGCCTGCGGATCTTTAAGCATTTTCAGCAAACCGAAAAGTCCGATGACTTCATTGCTTTCGTCAGCGCGGTCTTTTGCTTCAATGGCG (dsDNA)	abrB full length assumed	EMSA	double-stranded DNA, one strand shown	–	binding	binds
GATTGCAGAGATACTACAAAGGTATTACAAAAAAATAGGCATAGAGAATGTGAATCAGTTGATACTAACTACTATAAAATAGTTCGTATGTCGAACCTTTCTTTACCGAATTCATTATATATCCTTTACCTTAATTCTCACTTGTATGATAAAAGTAGGTATTTTAGATTCGACGTTAAGAGAAGGAG (dsDNA)	lysM 1-142	Cu-OP in-gel footprinting	double-stranded DNA, one strand shown	–	binding	binds
CTCAACAACTAACTACCATCCGGACCAGAAGAGTCATCATGG (dsDNA; blunt, 5mC both strands position 21)	MECP2 full length assumed (Homo sapiens, UniProt P51608)	MST	double-stranded DNA, one strand shown	–	binding	binds
ATAGCGAGACGGTAGACGACGACCAGAACTACTTCTGCTCACGTAAGCGAGTAATCACGTGAGCGCCTACGTCATGTGAGATCTCGGTCACGTGAGCAACTCTCGGCTTAAACTCGGGATCACTAAGGTGCCGCACTTCCTTCTGGTATGGAAATAGGGCGGGTCAATATCAAGAAAGGAAGAGGGTGATTGGTTAGCGGAACGTCTTACGTGACTGATTATTGGTCTACCTCTGGG (dsDNA)	TFEB full length assumed (Homo sapiens, UniProt P19484)	EMSA	double-stranded DNA, one strand shown	together with: Mg2+ 5 mM	binding	binds
GTTGTTTTAGTGCTTGTTAACCAGCGTGTCACAAAATATCTATAATTCCTTCGTATAATTGTCACAATGACATCCATAAATTAGGGGAAATGTACTTTATTTAAGAAGGAATTCGCGGTAAAGTACAGGTATAAATAACCATCCTGATAATAACGGAACATCAATGCGGGCCGAGGTCACCCTTTTGTCTGTAATCATAATCACATTAATAAGATGCATGTGAAAGTCTGAGCAAGTGTGATGCCCATTTGGCAAACGGGCCCGGCTAGAACAAAGAGGAGGAGAC (dsDNA)	abrB full length assumed	EMSA	double-stranded DNA, one strand shown	–	binding	binds
AACTTGCTGAC (dsDNA)	T1, NR1I2/RXRA (Homo sapiens)	fluorescence anisotropy competition	double-stranded DNA, one strand shown	10 µM, together with: DR3 FAM	binding	no binding
GGGAUGUUAAAGAUGAGCGGGUGGCAGCGACAGAGCCAAAAUCAGAGCUGGAACCUGAGGAGAGAGUGUUCAAGAAGGAAGUGUAUCUUCAUACAUCACCACACCUG (structured RNA (Homo sapiens); stem-loop nt 72-91)	endouc 23-309 (Danio rerio, UniProt Q1LUM3)	competition	–	–	binding	binds
TTTCAGATAGCATAACGCCTGCTCCTCTCCAGTCACTTTAAAAATGTATTTGAAATACATCTTTAAAGGTGCAATAAGATCTTTTTTAAATAGGACTGTTACTTTTGATTAAAGATGTATTTTAGATACATCTTTATACTAGACTTTTAATGGAATTAAAGCAATATTATCAATGAATGTTTTATATTTTTGTAACAATTTCCGCTCGACCCTCATAATCGAAGGCAAATGTGATAAGATAATGGAAACTTGTTTGATTGAGGTCA (dsDNA)	abrB full length assumed	EMSA	double-stranded DNA, one strand shown	–	binding	binds
GGGAUCGUCAGGUGGGAUAAUCCUUACCUGUUCCUCCUCCGGAGGGCAGAUUAGAACAUGAUGAUUGGAGAUGCAUGAAACGUGAUUAACGUCUCUGCGUAAUCAGGACUUGCAACACCCUGAUUGCUCCUGUCUGAUU (structured RNA)	SNU13	EMSA supershift	–	–	binding	binds
AACTGCAGGAAATTCTACTGTAAAGTATGGTTCCCAATTTATTATATTCTATTATCATGAAACTATCTCTTAAGTTCGGAAATCAAACCTCATATTAACGCCAATCAAAACTAATTACTAAATAGTCTATGAAATTTATGAATAGTTTTTAATCAATGCCTTCAACAATAGAAAGGGATCCCG (dsDNA)	lysM 1-142	EMSA	double-stranded DNA, one strand shown	–	binding	binds
TTCCTCCATCTTCATCTTCACCACCACCTTTCAATTCTATAGTAGATTAGCGGGTAATAATGGGCATAGGCATAGGGGTTGCTATCGGCTTCTTTCAATTCTATAGTAGATTAGCGATAAGCGATAAGCCCCGCGACTGCGAAGATGACAAAGAAGA (dsDNA (Sulfolobus islandicus))	T2, Cbp1 1-150 (Saccharolobus islandicus)	EMSA	double-stranded DNA, one strand shown	two retarded bands	binding	binds
